Assay results pooled from the literature.
Every numbered part comes from another study and shows a few of its results, in no order. Changes are numbered by the printed parent chain.
Chain of UniProt Q7Z7E8 (whole entry, looked up): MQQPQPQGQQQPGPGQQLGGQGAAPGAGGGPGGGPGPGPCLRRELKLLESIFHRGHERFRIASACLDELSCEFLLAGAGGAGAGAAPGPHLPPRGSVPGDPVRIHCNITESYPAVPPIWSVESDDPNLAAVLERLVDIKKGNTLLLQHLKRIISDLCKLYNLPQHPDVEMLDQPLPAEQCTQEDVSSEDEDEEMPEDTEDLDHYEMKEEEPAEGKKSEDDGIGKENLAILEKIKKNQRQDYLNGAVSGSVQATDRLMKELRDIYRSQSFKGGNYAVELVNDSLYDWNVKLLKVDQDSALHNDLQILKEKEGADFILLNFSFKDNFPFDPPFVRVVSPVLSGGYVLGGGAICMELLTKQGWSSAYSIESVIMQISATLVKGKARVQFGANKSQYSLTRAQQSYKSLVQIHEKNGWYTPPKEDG
Chain of UniProt Q9Y2X8 (whole entry, looked up): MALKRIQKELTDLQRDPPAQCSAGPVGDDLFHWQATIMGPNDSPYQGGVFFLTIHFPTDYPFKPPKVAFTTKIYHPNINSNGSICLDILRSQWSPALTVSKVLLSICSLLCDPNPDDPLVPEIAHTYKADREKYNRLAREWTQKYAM
Chain of UniProt P62837 (whole entry, looked up): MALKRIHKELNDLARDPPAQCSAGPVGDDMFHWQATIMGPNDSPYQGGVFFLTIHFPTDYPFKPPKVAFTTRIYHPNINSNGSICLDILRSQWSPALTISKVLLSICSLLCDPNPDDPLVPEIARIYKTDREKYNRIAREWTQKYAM
Chain of UniProt O00762 (whole entry, looked up): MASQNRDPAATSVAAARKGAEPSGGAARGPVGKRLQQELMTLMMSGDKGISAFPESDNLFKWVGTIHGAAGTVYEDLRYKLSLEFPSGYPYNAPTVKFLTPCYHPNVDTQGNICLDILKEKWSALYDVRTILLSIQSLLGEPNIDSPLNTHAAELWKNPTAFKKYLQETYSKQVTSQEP
Chain of UniProt P61081 (whole entry, looked up): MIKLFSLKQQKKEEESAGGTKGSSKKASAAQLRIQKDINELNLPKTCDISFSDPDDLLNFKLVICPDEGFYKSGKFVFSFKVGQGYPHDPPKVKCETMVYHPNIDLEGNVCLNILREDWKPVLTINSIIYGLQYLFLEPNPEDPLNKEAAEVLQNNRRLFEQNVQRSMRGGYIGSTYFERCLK
Chain of UniProt Q9NPD8 (whole entry, looked up): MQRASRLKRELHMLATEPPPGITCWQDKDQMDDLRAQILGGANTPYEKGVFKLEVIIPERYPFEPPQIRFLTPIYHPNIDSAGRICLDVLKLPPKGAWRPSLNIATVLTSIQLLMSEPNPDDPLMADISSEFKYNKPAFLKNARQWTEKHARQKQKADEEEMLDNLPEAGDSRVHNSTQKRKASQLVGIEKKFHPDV
Chain of UniProt Q9C0C9 (whole entry, looked up): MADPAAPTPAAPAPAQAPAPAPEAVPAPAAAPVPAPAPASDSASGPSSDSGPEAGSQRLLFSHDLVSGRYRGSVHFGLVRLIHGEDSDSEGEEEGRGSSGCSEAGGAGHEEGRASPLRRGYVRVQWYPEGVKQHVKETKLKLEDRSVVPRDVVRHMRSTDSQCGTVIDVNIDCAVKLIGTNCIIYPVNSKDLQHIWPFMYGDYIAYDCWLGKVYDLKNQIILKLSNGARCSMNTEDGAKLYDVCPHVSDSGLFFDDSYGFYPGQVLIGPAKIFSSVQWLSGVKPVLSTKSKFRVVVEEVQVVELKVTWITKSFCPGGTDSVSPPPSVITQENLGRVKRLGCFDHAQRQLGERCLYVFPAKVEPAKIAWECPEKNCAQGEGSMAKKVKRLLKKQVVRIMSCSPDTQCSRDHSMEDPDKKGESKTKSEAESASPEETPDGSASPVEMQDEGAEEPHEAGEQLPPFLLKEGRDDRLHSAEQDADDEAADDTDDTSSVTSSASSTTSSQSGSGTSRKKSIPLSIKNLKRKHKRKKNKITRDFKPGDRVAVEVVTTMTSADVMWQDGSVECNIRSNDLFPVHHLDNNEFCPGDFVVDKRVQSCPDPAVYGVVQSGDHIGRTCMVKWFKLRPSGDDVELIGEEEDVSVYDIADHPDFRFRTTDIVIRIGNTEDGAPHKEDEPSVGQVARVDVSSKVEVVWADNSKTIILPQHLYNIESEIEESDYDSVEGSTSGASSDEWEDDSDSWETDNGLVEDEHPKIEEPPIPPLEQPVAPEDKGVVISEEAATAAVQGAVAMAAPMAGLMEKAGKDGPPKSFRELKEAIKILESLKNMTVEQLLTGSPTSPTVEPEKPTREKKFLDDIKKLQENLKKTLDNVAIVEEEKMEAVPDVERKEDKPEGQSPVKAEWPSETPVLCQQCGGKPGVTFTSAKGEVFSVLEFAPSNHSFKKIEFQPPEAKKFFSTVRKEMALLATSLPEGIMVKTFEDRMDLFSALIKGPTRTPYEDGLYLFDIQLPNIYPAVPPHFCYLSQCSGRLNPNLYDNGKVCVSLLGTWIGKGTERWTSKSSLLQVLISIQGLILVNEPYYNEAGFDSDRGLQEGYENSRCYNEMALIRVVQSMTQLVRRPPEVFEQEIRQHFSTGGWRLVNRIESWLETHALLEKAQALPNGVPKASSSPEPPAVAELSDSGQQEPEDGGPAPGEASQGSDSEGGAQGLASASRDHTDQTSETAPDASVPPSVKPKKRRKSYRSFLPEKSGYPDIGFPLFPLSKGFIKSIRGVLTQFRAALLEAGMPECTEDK
Chain of UniProt Q969T4 (whole entry, looked up): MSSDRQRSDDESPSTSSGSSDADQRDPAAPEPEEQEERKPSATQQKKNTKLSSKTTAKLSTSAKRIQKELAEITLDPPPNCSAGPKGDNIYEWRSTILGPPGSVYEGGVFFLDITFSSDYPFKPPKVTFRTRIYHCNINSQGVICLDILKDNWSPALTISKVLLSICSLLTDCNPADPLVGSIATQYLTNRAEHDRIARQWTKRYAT

Block 1 — technique: universal PBM; form: double-stranded DNA, one strand shown; sample: in vitro; tested at: not given; reading: higher = stronger binding
Target: Sal-like protein 4, full length isoform B (SALL4, Homo sapiens, UniProt Q9UJQ4-2, residues 1-616)
Setting: 8-mer, flanks averaged, mean of replicates
Construct (chain): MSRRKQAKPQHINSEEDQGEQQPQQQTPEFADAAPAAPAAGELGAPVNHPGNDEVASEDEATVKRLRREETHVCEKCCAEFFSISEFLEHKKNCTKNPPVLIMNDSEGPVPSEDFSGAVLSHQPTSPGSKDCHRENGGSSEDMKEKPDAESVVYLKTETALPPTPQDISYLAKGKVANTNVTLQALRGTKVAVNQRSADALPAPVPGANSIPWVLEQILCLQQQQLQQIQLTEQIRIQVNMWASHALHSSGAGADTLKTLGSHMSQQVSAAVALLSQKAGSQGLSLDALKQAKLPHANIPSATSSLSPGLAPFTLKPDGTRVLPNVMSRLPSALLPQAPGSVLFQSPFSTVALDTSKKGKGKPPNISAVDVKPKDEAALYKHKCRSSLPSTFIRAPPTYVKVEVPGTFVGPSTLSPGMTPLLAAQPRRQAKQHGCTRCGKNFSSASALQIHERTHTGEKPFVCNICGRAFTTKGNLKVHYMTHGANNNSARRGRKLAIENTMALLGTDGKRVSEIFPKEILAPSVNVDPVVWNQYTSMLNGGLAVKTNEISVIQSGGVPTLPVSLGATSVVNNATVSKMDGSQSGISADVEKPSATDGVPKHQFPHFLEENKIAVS
Oligonucleotide	E-score
CTCGATGC	-0.187
GGGCCAGA	-0.395
CCTCTACG	-0.159
ATATGAAG	0.32
CGTATCAA	0.16
ATAATCCA	0.28
CCTTGACA	-0.0953
AACTTCCC	-0.0932
GAGATCAC	-0.179
AATCCGCC	-0.182
GCTGTAAC	-0.136
ATCGTCGG	-0.136
AGAACCAA	-0.164
CTCTTTTC	0.00183
GCGGGTGA	-0.26
ACAAGAGG	-0.0836
CGATGCCC	-0.22
GTCCGAAC	-0.202
CCTGTATC	0.101
CTGAGTTA	0.0267
CCTTGAGC	-0.135

Block 2 — Molecule: B1 (TRIM62 RING domain); technique: yeast two-hybrid; sample: yeast; setting: mostly zero background; reference: not given; reading: higher = stronger interaction
B1: TRIM62 RING domain (UniProt Q9BVG3); chain MACSLKDELLCSICLSIYQDPVSLGCEHYFCRRCITEHWVRQEAQGARDCPECRRTFAEPALAP
target	lacZ reporter activity
UBE2E3 UBC core domain (UniProt Q969T4)	0
UBE2M UBC core domain (UniProt P61081)	0
UBE2O UBC core domain (UniProt Q9C0C9)	0
UBE2Q1 UBC core domain (UniProt Q7Z7E8)	0
UBE2C UBC core domain (UniProt O00762)	0
UBE2D2 UBC core domain (UniProt P62837)	0
UBE2D4 UBC core domain (UniProt Q9Y2X8)	0
UBE2T UBC core domain (UniProt Q9NPD8)	0

Block 3 — technique: protein binding microarray; form: double-stranded DNA, one strand shown; sample: in vitro; tested at: not given; reference: not given; reading: higher = stronger binding
Target: Histone acetyltransferase KAT6A, both winged helices, GST fusion (KAT6A, Homo sapiens, UniProt Q92794, residues 1-181)
Setting: 8-mer, flanks averaged, mean of 2 arrays, mostly near background
Target sequence (chain): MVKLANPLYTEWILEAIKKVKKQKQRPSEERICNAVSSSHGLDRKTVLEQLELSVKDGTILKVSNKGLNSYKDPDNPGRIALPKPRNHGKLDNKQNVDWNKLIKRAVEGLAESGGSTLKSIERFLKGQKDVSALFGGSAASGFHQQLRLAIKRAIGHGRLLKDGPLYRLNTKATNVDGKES
Oligonucleotide	E-score
GCAGTTAC	0.046
CAAAGATC	0.0261
GCTTAACC	0.0672
ACTGGTCT	-0.184
AACCGGGC	0.134
AAACTCAC	0.0171
CGGGGAGA	0.0903
AATGGAAT	-0.136
CAAATTAA	-0.138
ACTGCCAT	-0.184
CTATTTCC	-0.0912
ATCCTGGC	-0.146
CTCCCTCC	-0.12
AACCGTCC	0.0345
CCTGCAAG	-0.172
AGGACTCA	-0.115
ACGAGTTC	-0.0913
ACCGGTCC	0.195
CCGAAGCA	-0.0191
AAGCACCC	-0.0662
CCGTTTTC	0.156
ATTCGAGG	-0.191
AAAGTCGT	-0.108
AATGTCTC	0.0469
ATTCCAAC	-0.19

Block 4 — target: CCNA2, cyclin fold, Cln2 fusion (human); technique: yeast growth competition, sequencing; sample: yeast; setting: strong parent motif; reference: not given; reading: higher = stronger binding
Starting sequence: PKN2 docking peptide (human); VSAVQKLDFSDTM; partner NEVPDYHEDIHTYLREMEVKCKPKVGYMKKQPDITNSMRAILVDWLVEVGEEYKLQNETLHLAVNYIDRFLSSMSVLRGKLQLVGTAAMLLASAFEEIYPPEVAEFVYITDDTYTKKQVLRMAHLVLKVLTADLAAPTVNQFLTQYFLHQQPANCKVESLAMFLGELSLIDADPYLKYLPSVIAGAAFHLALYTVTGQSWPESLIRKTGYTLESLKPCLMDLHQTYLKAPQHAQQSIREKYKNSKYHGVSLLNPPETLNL
Change	normalised enrichment score
VSAVQKLDFSDNM [T12N]	2.12
VSAVQKLDFSDIM [T12I]	2.14
VSAVQKLDFSDTV [M13V]	1.95
VSAVQKLDKSDTM [F9K]	0.0606
VSADQKLDFSDTM [V4D]	-0.182
VSCVQKLDFSDTM [A3C]	2.82
VSAVQKLNFSDTM [D8N]	1.83
VSSVQKLDFSDTM [A3S]	0.575
VSAVQKLDFSDYM [T12Y]	2.29
VSLVQKLDFSDTM [A3L]	0.385
VSAVQFLDFSDTM [K6F]	0.28
VSAVQKLDFSDFM [T12F]	1.99
VSKVQKLDFSDTM [A3K]	0.187
VSIVQKLDFSDTM [A3I]	1.45

Block 5 — technique: competition protein-binding microarray; form: double-stranded DNA, one strand shown; sample: in vitro; tested at: 2 µM; with: Cbf1 competitor, 0.05 µM; reading: higher = stronger binding; all sequences stand within: … GTCTTGATTCGCTTGACGCTGCTG
Target: Phosphate system positive regulatory protein PHO4, full length, GST-tagged (PHO4, Saccharomyces cerevisiae, UniProt P07270, residues 1-312)
Setting: whole 60-bp probe, lowest competitor level
Target sequence (chain): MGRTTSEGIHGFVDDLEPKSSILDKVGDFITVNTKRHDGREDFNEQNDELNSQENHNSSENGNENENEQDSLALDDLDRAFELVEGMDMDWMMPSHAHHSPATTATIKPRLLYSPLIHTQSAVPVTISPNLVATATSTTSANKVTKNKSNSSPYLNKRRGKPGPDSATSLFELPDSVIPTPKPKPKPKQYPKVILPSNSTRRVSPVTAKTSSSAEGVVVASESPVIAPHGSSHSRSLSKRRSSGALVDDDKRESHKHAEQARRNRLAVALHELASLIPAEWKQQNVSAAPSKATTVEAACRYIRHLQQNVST
Oligonucleotide	fluorescence intensity [a.u.]
AAAGCGGTAATTTTTCACGTGACTTCACATATCTAT	10900
AAATTACTAAGTTGGTTGGTGGGTGACGCCGTATGA	3980
TAGTGGATTCTCGGAGGCGTGACTCGAGCCAGCCCA	4650
GGTGTTTGGTAGAGTCAGGTGATTTACTGATTCTTC	4080
CTAACGAAGGTTTGATGAGTGGGTGACAAGCCAAGT	4160
TTTCTTCCTCTTGACAGCGTGCAAAGCCATTGATAG	7350
TGCGCAACAACTTGATCAGTGGGTGTATGTCTAGAA	4670
ACTAGAAGAAATCCGCACGTGTAACCAAAAATAGAG	18100
CGGGGTTAAGTTTGCCAAGTGGGTGGCTTGCAGCAG	4230
AAAAGACCATCCCATCACGTGACTCGTTTTTCCTGC	13800
GTCTTGTCTCATTGGGGCGTGGGTGTCCCCACTTCA	8800
GCCGAACTCTTTTATCATGTGATATGAATATGTTGG	6960
AAATAAAGCCTAAAGCGCGTGGTGAGTACGAAAAAA	9400
GTATGAATGCCGCTGTTCGTGCCGATGTTCGTACAG	6920
AGGTCCGCTGGAAAGCACGATCTCCGACGTAGTGGA	7050
TCTACAAGAGGTACCCACGTATTGCTCCATTGAGAG	7570
TGCGCAACAACTTGTTCTGTGGGTGTATGTCTAGAA	4120
AAAGCGGTAATTTTTCACGTGGCTTCACATATCTAT	13300

Block 6 — target: DDIT3, bZIP domain (human); technique: DHFR protein complementation; sample: yeast; reference: wild-type JUN-FOS pair; reading: higher = stronger binding
Setting: single substitutions, most at no-binding floor
Starting sequence: JUN, bZIP domain (human); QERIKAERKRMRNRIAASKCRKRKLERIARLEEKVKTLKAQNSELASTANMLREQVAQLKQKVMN; partner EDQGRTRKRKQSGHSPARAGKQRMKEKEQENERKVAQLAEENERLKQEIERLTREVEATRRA
Change	binding fitness [natural log]
A49S	-0.744
A46W	-0.0595
A40W	-0.276
L52P	-1.3
Q58P	-0.996
T48P	-1.11
E33I	-0.368
I28D	-0.253
A57W	-0.131
K39I	-0.00385
S47H	0.0966
L31Q	-0.388
E54M	-0.0414
A29S	-0.0693
L52T	-1.14
E44D	-0.0652
A29K	-0.0533
R30P	-0.49

Block 7 — technique: DHFR PCA, deep sequencing; sample: yeast; with: (+)-ABA 0.11 µM; reference: wild-type fitted maximum; reading: higher = stronger binding
Target: ABI1, truncated, D143A, DHFR fusion (Arabidopsis thaliana)
Setting: methotrexate growth selection, single substitutions
Starting sequence: PYL1, truncated, DHFR fusion (Arabidopsis thaliana); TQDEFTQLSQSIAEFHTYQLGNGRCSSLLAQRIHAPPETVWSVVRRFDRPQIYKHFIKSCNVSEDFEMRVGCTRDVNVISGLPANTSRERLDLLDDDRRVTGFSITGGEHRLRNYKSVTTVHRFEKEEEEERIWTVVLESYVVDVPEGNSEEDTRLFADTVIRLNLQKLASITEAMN; partner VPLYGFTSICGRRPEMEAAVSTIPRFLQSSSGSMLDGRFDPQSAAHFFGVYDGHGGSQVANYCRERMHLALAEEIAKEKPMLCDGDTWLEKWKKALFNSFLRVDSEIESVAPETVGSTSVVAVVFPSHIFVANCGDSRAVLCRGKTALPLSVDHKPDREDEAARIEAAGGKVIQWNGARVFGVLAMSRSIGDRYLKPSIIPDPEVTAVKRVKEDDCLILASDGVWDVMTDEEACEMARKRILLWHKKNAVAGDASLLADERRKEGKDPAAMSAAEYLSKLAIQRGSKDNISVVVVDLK
Change	relative binding score
Q167V	9%
N22M	20.8%
E152I	6.17%
L164F	11.2%
T173E	2.2%
R88Y	14%
L29V	34.8%
D96H	0.52%
V136F	-0.764%
D97M	10.9%
S27R	5.35%
Y141F	0.77%
R163M	30.8%
A158G	4.32%
T106H	-0.231%
R98F	-7.65%
Q51D	31.9%
D153A	0.747%
I57Y	0.419%
H110R	14.4%

Repeated from above (block 3):
Oligonucleotide	E-score
CCTGCAAG	-0.172
CCGTTTTC	0.156
ACGAGTTC	-0.0913
CAAATTAA	-0.138
AACCGTCC	0.0345
AATGTCTC	0.0469
CCGAAGCA	-0.0191
ACTGCCAT	-0.184
AAACTCAC	0.0171
AGGACTCA	-0.115
AAGCACCC	-0.0662
CTATTTCC	-0.0912
AATGGAAT	-0.136
ATCCTGGC	-0.146
CAAAGATC	0.0261
ACCGGTCC	0.195
AACCGGGC	0.134
CTCCCTCC	-0.12
CGGGGAGA	0.0903
ATTCGAGG	-0.191
